Measured values pooled from the literature.
Compare with care: the assays were run in different laboratories. Converted amounts (≈) assume the structure as drawn.
Sequence of UniProt Q02763 (whole entry, looked up): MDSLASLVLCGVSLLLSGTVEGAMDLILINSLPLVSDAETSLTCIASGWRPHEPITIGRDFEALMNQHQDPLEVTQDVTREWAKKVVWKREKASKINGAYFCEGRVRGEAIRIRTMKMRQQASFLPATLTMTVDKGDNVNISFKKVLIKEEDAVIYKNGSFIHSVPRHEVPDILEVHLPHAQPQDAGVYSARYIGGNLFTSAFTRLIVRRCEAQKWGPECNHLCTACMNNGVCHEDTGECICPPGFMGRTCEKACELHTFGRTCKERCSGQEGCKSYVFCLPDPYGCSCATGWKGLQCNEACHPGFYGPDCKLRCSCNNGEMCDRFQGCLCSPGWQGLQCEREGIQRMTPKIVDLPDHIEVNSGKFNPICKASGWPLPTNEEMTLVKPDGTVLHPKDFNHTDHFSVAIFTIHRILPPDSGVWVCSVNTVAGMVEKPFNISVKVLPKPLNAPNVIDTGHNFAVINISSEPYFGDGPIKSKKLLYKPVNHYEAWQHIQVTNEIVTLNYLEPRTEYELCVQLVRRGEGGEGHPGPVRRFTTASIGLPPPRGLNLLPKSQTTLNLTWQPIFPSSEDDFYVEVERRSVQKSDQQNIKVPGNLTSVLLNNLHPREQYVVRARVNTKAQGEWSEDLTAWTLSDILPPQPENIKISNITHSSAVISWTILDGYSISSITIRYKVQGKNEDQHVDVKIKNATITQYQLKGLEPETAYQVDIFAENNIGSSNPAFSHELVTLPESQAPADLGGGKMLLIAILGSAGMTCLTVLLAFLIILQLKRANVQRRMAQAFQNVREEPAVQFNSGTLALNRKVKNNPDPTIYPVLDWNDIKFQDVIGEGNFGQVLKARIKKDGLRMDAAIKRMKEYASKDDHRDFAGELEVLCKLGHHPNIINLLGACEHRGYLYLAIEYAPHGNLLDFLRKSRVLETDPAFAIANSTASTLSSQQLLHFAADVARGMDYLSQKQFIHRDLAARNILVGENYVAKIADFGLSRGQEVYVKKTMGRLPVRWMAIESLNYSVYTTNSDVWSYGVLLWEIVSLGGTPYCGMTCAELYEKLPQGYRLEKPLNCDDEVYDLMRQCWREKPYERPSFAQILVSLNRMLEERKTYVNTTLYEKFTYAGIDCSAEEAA
Sequence of UniProt O96013 (whole entry, looked up): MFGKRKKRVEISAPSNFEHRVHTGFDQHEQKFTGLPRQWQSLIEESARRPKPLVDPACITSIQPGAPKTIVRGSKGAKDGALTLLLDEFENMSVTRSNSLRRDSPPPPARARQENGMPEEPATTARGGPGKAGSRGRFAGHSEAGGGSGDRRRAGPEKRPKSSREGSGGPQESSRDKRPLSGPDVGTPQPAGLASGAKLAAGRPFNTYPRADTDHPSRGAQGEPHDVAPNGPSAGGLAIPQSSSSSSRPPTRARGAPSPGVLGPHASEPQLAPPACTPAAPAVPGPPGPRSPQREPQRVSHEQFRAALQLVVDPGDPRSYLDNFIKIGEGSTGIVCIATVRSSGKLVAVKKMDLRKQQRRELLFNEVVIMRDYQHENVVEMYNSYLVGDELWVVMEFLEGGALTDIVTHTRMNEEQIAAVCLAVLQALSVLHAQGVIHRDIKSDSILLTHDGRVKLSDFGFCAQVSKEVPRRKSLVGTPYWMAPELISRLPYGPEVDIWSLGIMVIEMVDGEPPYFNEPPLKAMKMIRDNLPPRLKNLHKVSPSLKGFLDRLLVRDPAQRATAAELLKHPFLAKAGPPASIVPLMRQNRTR

The remaining binding of `[2H]c1c([2H])c([C@]2([2H])CCCN2C(=O)C(C)(C)Oc2ccc3cn[nH]c3c2)c([2H])c([2H])c1C([2H])([2H])[2H]` is reported as 77% (TEK (Homo sapiens, UniProt Q02763); binding, competition with immobilised ligand; 1 µM).
`CC(=NNC(=O)c1ccncc1)c1ccc(Nc2nnc(-c3ccc(Cl)cc3)c3ccccc23)cc1` gave a cell death of 92.2% (HepG2; cell growth or viability, MTT; 0.625 µM).
For `Cc1noc(C)c1Cn1cc(N2C(=O)CN(Cc3cccc(O)c3)C2=O)cn1`, the concentration was 4.21 ng/mL (male Sprague-Dawley rat, plasma; oral, 10 mg/kg, 2 h).
`CC(=NNC(N)=S)c1ccc(Nc2nnc(-c3ccc(Cl)cc3)c3ccccc23)cc1` gave a cell death of 92.4% (HepG2; cell growth or viability, MTT; 0.625 µM).
With `CCCN(O)N=Nc1ccc(S(=O)(=O)Nc2nccs2)cc1` the inhibition was 11.4% (DPPH scavenging, absorbance; 60 µg/mL).
`CCn1cc(Cl)c2c(Cc3ccc(N4CCOCC4)nc3)n(C)nc2c1=O` has a kinetic solubility of 65 to 130 µM (≈ 25.2 to 50.4 µg/mL) (nephelometry; aqueous buffer; 30 min, pH 6.5).
`O=S(=O)(Nc1nccs1)c1ccc(N=NN(O)c2ccccc2)cc1` gave an inhibition of 31% (DPPH scavenging, absorbance; 60 µg/mL).
The remaining activity of `CNc1ncc2c(/C=C/C(=O)N3CCC(OC)CC3)nn(Cc3cccc(C(F)(F)F)c3)c2n1` is reported as 92% (PAK4 (Homo sapiens, UniProt O96013); enzyme activity, inhibitor, radiometric; 1 µM).

Some of these lines once more:
The remaining activity of `CNc1ncc2c(/C=C/C(=O)N3CCC(OC)CC3)nn(Cc3cccc(C(F)(F)F)c3)c2n1` is reported as 92% (PAK4 (Homo sapiens, UniProt O96013); enzyme activity, inhibitor, radiometric; 1 µM).
